# Experimental data from different studies.
# Values joined by “and” are separate records of one study, mostly repeats; a detail may differ. Numbers after ± are the reported error.
# Sequence of UniProt P42336 (whole entry, unmodified, looked up): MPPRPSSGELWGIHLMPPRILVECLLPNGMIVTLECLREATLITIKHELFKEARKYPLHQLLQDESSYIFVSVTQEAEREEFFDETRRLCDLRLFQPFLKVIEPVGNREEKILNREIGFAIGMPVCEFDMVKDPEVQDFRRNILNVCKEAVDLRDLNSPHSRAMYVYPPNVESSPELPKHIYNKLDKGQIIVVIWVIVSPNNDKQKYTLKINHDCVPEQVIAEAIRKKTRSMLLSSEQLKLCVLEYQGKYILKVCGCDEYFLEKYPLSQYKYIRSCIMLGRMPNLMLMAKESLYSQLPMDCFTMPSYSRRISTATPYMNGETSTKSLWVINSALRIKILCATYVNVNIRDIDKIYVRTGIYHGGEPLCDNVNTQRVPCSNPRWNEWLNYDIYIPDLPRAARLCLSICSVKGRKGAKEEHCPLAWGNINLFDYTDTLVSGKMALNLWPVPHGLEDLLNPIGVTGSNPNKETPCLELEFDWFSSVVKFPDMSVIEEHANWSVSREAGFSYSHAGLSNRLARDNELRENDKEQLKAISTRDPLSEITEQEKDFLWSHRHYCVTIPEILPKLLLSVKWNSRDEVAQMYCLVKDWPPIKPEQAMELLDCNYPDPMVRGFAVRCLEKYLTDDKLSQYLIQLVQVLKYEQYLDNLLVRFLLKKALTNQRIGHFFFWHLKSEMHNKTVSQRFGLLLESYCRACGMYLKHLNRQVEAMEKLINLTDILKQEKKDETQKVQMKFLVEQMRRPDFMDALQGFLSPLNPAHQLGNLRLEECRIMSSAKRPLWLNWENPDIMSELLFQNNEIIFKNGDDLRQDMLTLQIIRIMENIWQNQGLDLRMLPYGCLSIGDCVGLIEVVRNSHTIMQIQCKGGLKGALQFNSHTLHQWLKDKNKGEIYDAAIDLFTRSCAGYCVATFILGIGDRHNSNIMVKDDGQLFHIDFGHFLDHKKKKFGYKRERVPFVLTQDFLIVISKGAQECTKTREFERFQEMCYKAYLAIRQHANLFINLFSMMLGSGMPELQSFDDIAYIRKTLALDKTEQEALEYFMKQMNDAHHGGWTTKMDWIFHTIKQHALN
# Sequence of UniProt Q96BR1 (whole entry, looked up): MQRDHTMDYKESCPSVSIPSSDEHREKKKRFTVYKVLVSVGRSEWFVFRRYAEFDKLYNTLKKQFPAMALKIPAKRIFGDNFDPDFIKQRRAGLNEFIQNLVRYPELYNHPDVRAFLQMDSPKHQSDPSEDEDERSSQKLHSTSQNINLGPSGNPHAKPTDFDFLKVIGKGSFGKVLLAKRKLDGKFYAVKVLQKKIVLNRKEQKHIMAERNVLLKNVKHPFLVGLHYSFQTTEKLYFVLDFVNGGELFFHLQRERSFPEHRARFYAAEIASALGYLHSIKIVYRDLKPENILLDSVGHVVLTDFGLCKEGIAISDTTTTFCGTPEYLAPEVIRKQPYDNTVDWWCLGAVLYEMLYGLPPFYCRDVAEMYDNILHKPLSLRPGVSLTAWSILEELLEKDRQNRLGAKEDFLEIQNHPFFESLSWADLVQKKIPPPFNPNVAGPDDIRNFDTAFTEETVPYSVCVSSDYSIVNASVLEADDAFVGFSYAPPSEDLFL
# Sequence of UniProt Q6PHR2 (whole entry, looked up): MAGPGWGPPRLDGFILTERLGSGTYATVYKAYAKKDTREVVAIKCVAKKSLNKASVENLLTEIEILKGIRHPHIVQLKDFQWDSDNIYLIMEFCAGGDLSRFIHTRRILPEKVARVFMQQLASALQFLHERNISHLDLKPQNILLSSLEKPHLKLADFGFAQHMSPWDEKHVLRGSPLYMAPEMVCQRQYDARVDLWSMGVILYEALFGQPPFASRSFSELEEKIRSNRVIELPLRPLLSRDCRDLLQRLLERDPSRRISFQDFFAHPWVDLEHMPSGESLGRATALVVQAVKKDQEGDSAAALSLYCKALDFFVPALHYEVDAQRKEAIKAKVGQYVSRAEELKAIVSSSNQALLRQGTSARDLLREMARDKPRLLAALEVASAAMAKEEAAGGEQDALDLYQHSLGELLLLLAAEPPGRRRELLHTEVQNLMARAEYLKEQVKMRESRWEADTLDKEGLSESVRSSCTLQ
SMILES,target or system,assay,system,setting,scale,quantity,result
N=C(N)NCCC[C@@H]1NC(=O)[C@H](CCCCNC(=O)CCC(NC(=S)Nc2ccc(CC3CN(CC(=O)O)CCN(CC(=O)O)CCN(CC(=O)O)CCN3CC(=O)O)cc2)C(=O)NCCCC[C@@H]2NC(=O)[C@@H](Cc3ccc(O)cc3)NC(=O)[C@H](CC(=O)O)NC(=O)CNC(=O)[C@H](CCCNC(=N)N)NC2=O)NC(=O)[C@@H](Cc2ccc(O)cc2)NC(=O)[C@H](CC(=O)O)NC(=O)CNC1=O (stereo partly drawn) [scandium-44 labelled],,PET imaging,"female athymic nude mouse, kidney","intravenous, 2 h, U-87 MG xenograft, added: cRGD 50 mg/kg blocking",,tissue uptake,0.63 ± 0.17 %ID/g
Cc1ccc(OCCN(C)C)cc1C(=O)N[C@H](C)c1cc(-c2cncs2)nc2ccccc12,Vero E6,,,3.906 µM,,viability,98.7% and 110%
NC(=S)N/N=C/c1ccc(OCc2ccccc2)cc1,IMR-32,MTT,,"200 µg/mL, 24 h",reference: untreated control,viability,57.4%
O=c1n(CCNCCOS(=O)(=O)c2ccccc2)c(=O)n(S(=O)(=O)c2ccccc2)c(=O)n1S(=O)(=O)c1ccccc1,HUVEC,"cell growth or viability, MTT",,"12.5 µg/mL, 24 h",,viability,91.2%
CNC(=O)C[C@H](Cc1ccc(F)cc1)NC(=O)[C@@H](Cc1ccc(Cl)cc1Cl)NC(=O)[C@H](N)Cc1ccccc1C#N,Huh-7-ACE2,CellTiter-Glo,,"0.195 µM, 48 h, unit not given",reference: DMSO,viability,1.13 and 1.08 and 0.941
CCn1ccc(-c2cc([C@@H](C)NC(=O)c3cc(OC[C@H]4CCCN4C)ccc3C)c3ccccc3n2)n1,Vero E6,,,250 µM,,viability,0.312% and 0.938% and 0.156%
CCCCCCCCCCCCCCCC(=O)OCC(CSC[C@H](N)C(=O)N[C@@H](CO)C(=O)N[C@@H](CCCCN)C(=O)N[C@@H](CCCCN)C(=O)N[C@@H](CCCCN)C(=O)N[C@@H](CCCCN)C(=O)O)OC(=O)CCCCCCCCCCCCCCC (stereo partly drawn),HFF-1,,,"0.1 µg/mL, 48 h",,viability,90%
CNC(=O)C[C@H](Cc1ccc(F)cc1)NC(=O)[C@@H](Cc1ccc(Cl)cc1Cl)NC(=O)[C@H](N)Cc1ccccc1[N+](=O)[O-],Huh-7-ACE2,CellTiter-Glo,,"0.000191 µM, 48 h, unit not given",reference: DMSO,viability,0.981 and 1.05 and 1
CNC(=S)N/N=C/c1ccc(OCc2ccccc2)cc1,IMR-32,MTT,,"400 µg/mL, 24 h",reference: untreated control,viability,49.4%
CCCCCCCCCCCCCCCC(=O)OCC(CSC[C@H](N)C(=O)NCC(=O)N[C@@H](CC(=O)O)C(=O)N1CCC[C@H]1C(=O)N[C@@H](CCCCN)C(=O)N[C@@H](Cc1c[nH]cn1)C(=O)N1CCC[C@H]1C(=O)N[C@@H](CCCCN)C(=O)N[C@@H](CO)C(=O)N[C@@H](Cc1ccccc1)C(=O)O)OC(=O)CCCCCCCCCCCCCCC (stereo partly drawn),HFF-1,,,"0.1 µg/mL, 48 h",,viability,86.4%
CS(C)(=O)=Nc1ccc(-c2ccc(-c3nc4cc(O[C@@H]5CO[C@H]6[C@@H]5OC[C@H]6O)[nH]c4cc3F)cc2)cc1,"Phosphatidylinositol 4,5-bisphosphate 3-kinase catalytic subunit alpha isoform, with p85 alpha (PIK3CA, Homo sapiens, UniProt P42336, E542K)",kinase activity,,10 µM,,inhibition,-2%
O=C1NC(=O)c2c1c1cc(F)c[n+]3c1c1c2c2cc(O)ccc2[n]1[Ru-4]312([N]=C=S)[S+]3CC[S+]1CC[S+]2CC3 (stereo not drawn),"Serine/threonine-protein kinase ULK3 (ULK3, Homo sapiens, UniProt Q6PHR2)",enzyme activity,,"100 nM, human enzyme, added: 10 µM ATP",reference: untreated,remaining activity,83%
COc1ccccc1-c1n[nH]c2nc(NC3CCN(C(=O)Cc4ccc(F)cc4F)CC3)ncc12,,"bead binding, competition bead pull-down, refers to: LINJ.28.2370",Leishmania donovani axenic amastigote extract,10 µM,reference: vehicle,relative abundance,0.7
CNC(=O)C[C@H](Cc1ccncc1)NC(=O)[C@@H](Cc1cccc(Br)c1)NC(=O)[C@@H](N)Cc1cccc(F)c1,Huh-7-ACE2,CellTiter-Glo,,"0.00153 µM, 48 h, unit not given",reference: DMSO,viability,1.11 and 0.992 and 0.891
CCCCCCCCCCCCCCCC(=O)N[C@@H](CSCC(COC(=O)CCCCCCCCCCCCCCC)OC(=O)CCCCCCCCCCCCCCC)C(=O)N[C@@H](CO)C(=O)N[C@@H](CCCCN)C(=O)N[C@@H](CCCCN)C(=O)N[C@@H](CCCCN)C(=O)N[C@@H](CCCCN)C(=O)O (stereo partly drawn),HFF-1,,,"0.01 µg/mL, 48 h",,viability,94.5%
CC[C@H](C)[C@H](NC(=O)[C@H](CO)NC(=O)[C@H](Cc1ccc(O)cc1)NC(=O)[C@H](Cc1ccc(O)cc1)NC(=O)[C@H](CC(N)=O)NC(=O)CNC(=O)[C@H](CO)NC(=O)[C@H](Cc1ccc(O)cc1)NC(=O)[C@H](CO)NC(=O)[C@H](CO)NC(=O)[C@H](CC(N)=O)NC(=O)COCCOCCNC(=O)CN1CCN(CC(=O)O)CCN(CC(=O)O)CCN(CC(=O)O)CC1)C(=O)N[C@@H](CC(C)C)C(N)=O [copper-64 labelled],,dynamic PET,"tamoxifen-induced PDAC mouse model, pancreas","7.5 min, CLDN4-expressing tumours",,maximum pancreas uptake,17.9 %IA/cc
CNC(=O)CC1CN(C(=O)c2ccc(C(F)(F)F)cn2)CCN1C(=O)c1cccnn1 (stereo not drawn),Huh-7-ACE2,CellTiter-Glo,,"0.0977 µM, 48 h, unit not given",reference: DMSO,viability,1.1 and 0.925 and 0.937
Cc1cc(C(=O)Nc2nc3cccc(C)c3n2[C@H]2CCCCN(C(=O)/C=C/CN(C)C)C2)ccn1,Trypanosoma brucei,propidium iodide flow cytometry,bloodstream form,"concentration not given, 16 h",,cells in S phase,17.5%
CNC(=O)CC[C@H](Cc1ccccc1)NC(=O)[C@@H](Cc1ccc(Cl)cc1Cl)NC(=O)[C@H](N)Cc1ccccc1[N+](=O)[O-],Huh-7-ACE2,CellTiter-Glo,,"0.0488 µM, 48 h, unit not given",reference: DMSO,viability,0.739 and 1 and 0.886
Cc1ccc(OCCN(C)C)cc1C(=O)N[C@H](C)c1cc(-c2ccc(C#N)nc2)nc2ccccc12,Vero E6,,,3.906 µM,,viability,102% and 109%
CNC(=O)C[C@H](Cc1ccccc1)NC(=O)[C@@H](Cc1ccc(Cl)cc1Cl)NC(=O)[C@H](N)Cc1ccccc1C#N,Huh-7-ACE2,CellTiter-Glo,,"0.000191 µM, 48 h, unit not given",reference: DMSO,viability,1.1 and 1.04 and 0.971
NC(=O)N/N=C/c1ccc(OCc2cccc(F)c2)cc1,IMR-32,MTT,,"50 µg/mL, 24 h",reference: untreated control,viability,91.5%
Cc1ccc(OCCN(C)C)cc1C(=O)N[C@H](C)c1cc(-c2ccn(C)n2)nc2ccccc12,Vero E6,,,250 µM,,viability,0.225% and 0.449% and 0%
CC(C)(C)C(=O)OCOP(=O)(OCOC(=O)C(C)(C)C)C1CCCN(O)C1=O (stereo not drawn),Malme-3M,,,,,TGI,5.81 µM
O=C1NC2(CC2)COc2ncc(F)cc2[C@H]2COCCN2c2ccn3ncc1c3n2,,,"Sprague-Dawley rat, male, serum","oral, 2.5 mg/kg/day, end of recovery, 4-week subacute toxicity",,serum LDH activity,846 ± 232 U/L
Cc1ccc(N2CCC3(CC2)CN(C)C3)cc1C(=O)N[C@H](C)c1cc(-c2cnn(C)c2)nc2ccccc12,Vero E6,,,7.812 µM,,viability,96.1% and 94.5% and 98.9%
Cc1nc2cccc(OCC(C)(C)C(=O)NC(C)C)c2c(N)c1C(=O)[O-].[Na+],Salmonella typhimurium,Ames preincubation,TA1535,"0.80 mg/plate, added: with rat liver S9",,revertant colonies,17 ± 4 colonies/plate
CN(C)[C@H]1C[C@@]23CC[C@@]4(O2)C(=CC[C@]2(C)[C@@H](c5ccc6ccncc6c5)CC[C@H]24)C=C3[C@@H](O)[C@@H]1O,"Serine/threonine-protein kinase Sgk3 (SGK3, Homo sapiens, UniProt Q96BR1)","ATP probe labelling, inhibitor, KiNativ profiling",,1 µM,,inhibition,-1.2%
Cc1ccc(N2CC3CCC(C2)N3C)cc1C(=O)N[C@H](C)c1cc(-c2cnn(C)c2)nc2ccccc12,Vero E6,,,250 µM,,viability,0.958% and 0.766% and 1.53%
CNC(=O)C[C@H](Cc1ccncc1)NC(=O)[C@@H](Cc1cccc(Br)c1)NC(=O)[C@@H](N)Cc1ccsc1,Huh-7-ACE2,CellTiter-Glo,,"0.0488 µM, 48 h, unit not given",reference: DMSO,viability,0.947 and 0.997 and 0.862
NC(=S)N/N=C/c1ccc(OCc2cccc(F)c2)cc1,IMR-32,MTT,,"50 µg/mL, 24 h",reference: untreated control,viability,94.9%
Cc1ccc(N2CCN(C)C3(CC3)C2)cc1C(=O)N[C@H](C)c1cc(-c2cnn(C)c2)nc2ccccc12,Vero E6,,,7.812 µM,,viability,111% and 108% and 109%
COc1ccccc1-c1n[nH]c2nc(N[C@H]3CC[C@H](NS(=O)(=O)CC(C)C)CC3)ncc12,,"bead binding, competition bead pull-down, refers to: LINJ.08.1220",Leishmania donovani extract,10 µM,reference: vehicle,relative abundance,1.38

# Some of these lines once more:
SMILES,target or system,assay,system,setting,scale,quantity,result
CNC(=O)C[C@H](Cc1ccncc1)NC(=O)[C@@H](Cc1cccc(Br)c1)NC(=O)[C@@H](N)Cc1ccsc1,Huh-7-ACE2,CellTiter-Glo,,"0.0488 µM, 48 h, unit not given",reference: DMSO,viability,0.947 and 0.997 and 0.862
NC(=S)N/N=C/c1ccc(OCc2cccc(F)c2)cc1,IMR-32,MTT,,"50 µg/mL, 24 h",reference: untreated control,viability,94.9%
